# Results gathered from unrelated publications.
# Protocols differ between the studies behind these lines. Values joined by “and” are separate records of one study, mostly repeats; a detail may differ.
# UniProt Q15102, sequence (whole entry, looked up): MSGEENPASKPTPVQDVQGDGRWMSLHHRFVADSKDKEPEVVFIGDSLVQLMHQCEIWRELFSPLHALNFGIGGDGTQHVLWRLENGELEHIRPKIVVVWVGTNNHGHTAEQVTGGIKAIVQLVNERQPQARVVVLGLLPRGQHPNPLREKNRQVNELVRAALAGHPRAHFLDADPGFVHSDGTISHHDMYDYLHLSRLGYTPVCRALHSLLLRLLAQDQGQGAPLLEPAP
# UniProt P47775, sequence (whole entry, looked up): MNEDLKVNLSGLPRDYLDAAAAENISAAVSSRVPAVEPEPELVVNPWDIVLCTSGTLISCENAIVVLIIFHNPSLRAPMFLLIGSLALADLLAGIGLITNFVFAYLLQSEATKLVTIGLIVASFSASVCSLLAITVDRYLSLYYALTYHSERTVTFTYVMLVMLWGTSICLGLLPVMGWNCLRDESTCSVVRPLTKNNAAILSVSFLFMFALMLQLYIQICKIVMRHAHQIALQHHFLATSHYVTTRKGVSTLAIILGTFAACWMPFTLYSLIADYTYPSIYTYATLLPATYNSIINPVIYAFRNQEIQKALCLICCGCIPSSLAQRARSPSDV
# UniProt P25103, sequence (whole entry, looked up): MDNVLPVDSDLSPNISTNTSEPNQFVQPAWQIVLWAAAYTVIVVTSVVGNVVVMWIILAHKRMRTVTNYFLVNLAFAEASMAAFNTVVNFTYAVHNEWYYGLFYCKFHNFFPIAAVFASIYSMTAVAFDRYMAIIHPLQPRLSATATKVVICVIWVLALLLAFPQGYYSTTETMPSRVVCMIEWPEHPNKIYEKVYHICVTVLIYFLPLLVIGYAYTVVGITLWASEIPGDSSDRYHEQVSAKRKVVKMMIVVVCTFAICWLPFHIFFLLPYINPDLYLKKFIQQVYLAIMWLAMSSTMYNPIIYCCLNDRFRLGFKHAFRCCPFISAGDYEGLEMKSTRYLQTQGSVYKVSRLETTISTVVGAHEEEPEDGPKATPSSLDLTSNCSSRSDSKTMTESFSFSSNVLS
# UniProt Q13561, sequence (whole entry, looked up): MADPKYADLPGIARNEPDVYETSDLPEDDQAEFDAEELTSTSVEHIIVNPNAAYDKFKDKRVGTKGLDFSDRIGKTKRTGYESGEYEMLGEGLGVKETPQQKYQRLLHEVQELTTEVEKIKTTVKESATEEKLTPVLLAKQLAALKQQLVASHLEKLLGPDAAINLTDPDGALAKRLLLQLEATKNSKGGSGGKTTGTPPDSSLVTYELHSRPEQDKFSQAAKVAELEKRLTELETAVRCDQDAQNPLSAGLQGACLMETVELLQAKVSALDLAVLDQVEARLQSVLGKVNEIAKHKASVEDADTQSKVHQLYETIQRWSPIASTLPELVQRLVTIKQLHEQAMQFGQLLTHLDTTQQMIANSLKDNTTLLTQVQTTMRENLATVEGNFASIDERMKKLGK
# UniProt Q15303, sequence (whole entry, looked up): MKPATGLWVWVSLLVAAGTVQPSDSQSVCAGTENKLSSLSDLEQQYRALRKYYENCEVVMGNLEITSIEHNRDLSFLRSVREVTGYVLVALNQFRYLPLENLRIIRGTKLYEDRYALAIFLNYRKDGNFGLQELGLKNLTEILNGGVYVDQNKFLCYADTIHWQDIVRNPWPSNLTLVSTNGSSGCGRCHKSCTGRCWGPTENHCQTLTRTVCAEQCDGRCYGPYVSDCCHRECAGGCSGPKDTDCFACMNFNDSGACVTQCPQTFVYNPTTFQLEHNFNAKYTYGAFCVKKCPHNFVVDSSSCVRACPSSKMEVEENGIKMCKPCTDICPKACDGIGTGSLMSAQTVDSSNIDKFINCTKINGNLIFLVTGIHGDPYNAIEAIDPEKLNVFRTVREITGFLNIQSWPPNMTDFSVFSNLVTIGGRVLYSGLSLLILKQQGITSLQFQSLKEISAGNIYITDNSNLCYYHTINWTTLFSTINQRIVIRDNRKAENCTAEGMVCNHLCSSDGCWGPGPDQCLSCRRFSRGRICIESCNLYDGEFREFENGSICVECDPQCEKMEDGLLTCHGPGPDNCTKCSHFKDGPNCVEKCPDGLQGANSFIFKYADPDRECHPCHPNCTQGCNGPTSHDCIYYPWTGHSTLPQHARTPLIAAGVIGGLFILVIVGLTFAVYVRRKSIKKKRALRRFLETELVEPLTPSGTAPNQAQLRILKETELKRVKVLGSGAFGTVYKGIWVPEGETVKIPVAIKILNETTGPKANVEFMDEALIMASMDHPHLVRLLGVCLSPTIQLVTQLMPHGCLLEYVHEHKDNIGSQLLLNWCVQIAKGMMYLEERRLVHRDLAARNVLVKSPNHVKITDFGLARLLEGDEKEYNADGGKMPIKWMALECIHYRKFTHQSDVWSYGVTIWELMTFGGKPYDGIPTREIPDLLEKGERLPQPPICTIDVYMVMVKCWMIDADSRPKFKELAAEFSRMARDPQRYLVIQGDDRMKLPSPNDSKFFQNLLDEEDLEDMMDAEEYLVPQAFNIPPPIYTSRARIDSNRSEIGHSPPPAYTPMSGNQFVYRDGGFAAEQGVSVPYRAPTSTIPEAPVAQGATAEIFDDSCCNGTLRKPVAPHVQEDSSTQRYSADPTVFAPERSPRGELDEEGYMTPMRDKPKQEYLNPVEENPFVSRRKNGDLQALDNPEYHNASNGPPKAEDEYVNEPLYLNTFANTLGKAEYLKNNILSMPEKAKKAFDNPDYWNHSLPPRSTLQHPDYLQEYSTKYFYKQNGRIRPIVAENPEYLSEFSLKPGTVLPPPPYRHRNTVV
# UniProt Q8NFN8, sequence (whole entry, looked up): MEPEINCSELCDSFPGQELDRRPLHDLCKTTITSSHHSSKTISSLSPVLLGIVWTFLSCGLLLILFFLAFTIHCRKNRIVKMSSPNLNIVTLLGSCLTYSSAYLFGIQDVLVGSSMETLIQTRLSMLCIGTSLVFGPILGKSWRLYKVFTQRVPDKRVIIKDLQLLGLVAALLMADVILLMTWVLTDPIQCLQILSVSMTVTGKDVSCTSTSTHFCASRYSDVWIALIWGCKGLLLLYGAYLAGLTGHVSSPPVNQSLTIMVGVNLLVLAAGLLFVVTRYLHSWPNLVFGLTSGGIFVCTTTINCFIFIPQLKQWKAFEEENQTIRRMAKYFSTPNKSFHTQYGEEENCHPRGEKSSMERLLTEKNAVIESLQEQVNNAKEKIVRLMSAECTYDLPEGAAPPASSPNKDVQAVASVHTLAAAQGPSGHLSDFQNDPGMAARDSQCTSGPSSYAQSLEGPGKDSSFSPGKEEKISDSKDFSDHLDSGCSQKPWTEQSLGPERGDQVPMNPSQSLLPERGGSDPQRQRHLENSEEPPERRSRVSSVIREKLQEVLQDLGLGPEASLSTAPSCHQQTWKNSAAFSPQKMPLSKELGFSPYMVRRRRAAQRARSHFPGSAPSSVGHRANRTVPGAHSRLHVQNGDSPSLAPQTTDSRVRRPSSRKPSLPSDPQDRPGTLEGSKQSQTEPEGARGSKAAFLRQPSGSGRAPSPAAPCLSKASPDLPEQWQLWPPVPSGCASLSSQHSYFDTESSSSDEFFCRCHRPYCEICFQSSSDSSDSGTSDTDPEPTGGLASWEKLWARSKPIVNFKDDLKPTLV
# UniProt Q13233, sequence (whole entry, looked up): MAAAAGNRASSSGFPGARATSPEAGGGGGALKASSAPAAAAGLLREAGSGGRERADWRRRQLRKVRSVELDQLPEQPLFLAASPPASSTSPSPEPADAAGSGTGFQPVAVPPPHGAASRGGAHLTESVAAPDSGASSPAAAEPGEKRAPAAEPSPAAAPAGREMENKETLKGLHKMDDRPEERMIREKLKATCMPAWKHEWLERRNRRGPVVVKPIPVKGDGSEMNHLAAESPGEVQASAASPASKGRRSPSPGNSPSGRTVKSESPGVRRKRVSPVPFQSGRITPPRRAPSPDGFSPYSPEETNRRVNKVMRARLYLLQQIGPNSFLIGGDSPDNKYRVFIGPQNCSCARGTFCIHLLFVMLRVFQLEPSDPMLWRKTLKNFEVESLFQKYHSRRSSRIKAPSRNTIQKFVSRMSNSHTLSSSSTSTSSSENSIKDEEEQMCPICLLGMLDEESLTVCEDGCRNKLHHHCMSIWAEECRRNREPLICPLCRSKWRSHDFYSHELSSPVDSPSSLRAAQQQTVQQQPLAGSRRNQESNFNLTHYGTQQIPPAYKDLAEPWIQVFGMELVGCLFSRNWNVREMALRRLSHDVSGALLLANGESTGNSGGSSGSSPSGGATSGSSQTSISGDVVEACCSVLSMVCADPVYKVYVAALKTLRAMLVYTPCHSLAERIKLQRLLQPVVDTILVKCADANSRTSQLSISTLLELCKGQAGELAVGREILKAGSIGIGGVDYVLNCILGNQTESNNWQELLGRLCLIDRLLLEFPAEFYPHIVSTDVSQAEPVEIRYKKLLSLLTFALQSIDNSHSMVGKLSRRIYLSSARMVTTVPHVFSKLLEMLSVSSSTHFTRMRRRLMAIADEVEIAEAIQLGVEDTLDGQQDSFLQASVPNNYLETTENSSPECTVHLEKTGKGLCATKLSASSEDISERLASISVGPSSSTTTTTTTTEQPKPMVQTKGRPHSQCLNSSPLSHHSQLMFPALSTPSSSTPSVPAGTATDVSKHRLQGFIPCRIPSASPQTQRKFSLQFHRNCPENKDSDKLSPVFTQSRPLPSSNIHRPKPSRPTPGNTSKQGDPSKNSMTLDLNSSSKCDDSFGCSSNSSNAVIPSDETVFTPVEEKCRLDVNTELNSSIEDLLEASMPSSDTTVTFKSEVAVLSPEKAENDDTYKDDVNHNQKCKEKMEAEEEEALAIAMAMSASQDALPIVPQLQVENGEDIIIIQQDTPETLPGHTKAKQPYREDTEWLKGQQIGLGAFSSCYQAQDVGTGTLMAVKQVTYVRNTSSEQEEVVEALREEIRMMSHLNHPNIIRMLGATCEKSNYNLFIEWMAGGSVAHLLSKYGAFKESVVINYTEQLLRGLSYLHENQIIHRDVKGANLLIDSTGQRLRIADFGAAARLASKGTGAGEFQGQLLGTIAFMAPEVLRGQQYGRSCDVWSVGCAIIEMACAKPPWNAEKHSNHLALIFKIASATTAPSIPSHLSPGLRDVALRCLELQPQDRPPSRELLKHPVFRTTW
Compound,target or system,test,system,setting,how to read,quantity,result
COc1ccc(N2C(=O)N(c3c(C)cccc3Cl)Cc3cnc(Nc4ccc(C5CCN(C)CC5)cc4OC)nc32)nc1,"ERBB4 (Homo sapiens, UniProt Q15303)",kinase activity,,0.5 µM,,inhibition,99%
CC[C@H](C)[C@H](NC(=O)CNC(=O)[C@@H](N)CCCCN)C(=O)N[C@@H](CC(C)C)C(=O)N[C@@H](CCCCN)C(=O)N[C@@H](CCCNC(=N)N)C(=O)N[C@@H](CCC(=O)O)C(=O)N[C@@H](CCCCN)C(=O)N[C@@H](CCCNC(=N)N)C(=O)N[C@@H](CC(C)C)C(=O)N[C@@H](CCCNC(=N)N)C(=O)N[C@@H](CCCNC(=N)N)C(=O)N[C@@H](CCCCN)C(=O)N[C@@H](CC(N)=O)C(=O)N[C@H](C(=O)N[C@@H](Cc1c[nH]cn1)C(=O)N[C@@H](Cc1c[nH]c2ccccc12)C(=O)N1CCC[C@H]1C(=O)N[C@@H](CCC(=O)O)C(=O)N[C@@H](CCC(=O)O)C(=O)NCC(=O)N[C@@H](CCCCN)C(=O)N[C@@H](CC(C)C)C(=O)N[C@@H](CCCNC(=N)N)C(=O)N[C@@H](CCC(=O)O)C(=O)N[C@@H](Cc1ccc(O)cc1)C(=O)N[C@@H](Cc1ccccc1)C(=O)N[C@@H](Cc1ccc(O)cc1)C(=O)N[C@@H](Cc1ccccc1)C(=O)N[C@@H](CCC(=O)O)C(=O)N[C@@H](CC(C)C)C(=O)N[C@@H](CC(=O)O)C(=O)N[C@@H](CCC(=O)O)C(=O)N[C@@H](C)C(=O)N[C@@H](CCC(=O)O)C(=O)N[C@@H](CCCNC(=N)N)C(=O)N[C@H](C(=O)N[C@@H](CC(N)=O)C(=O)N[C@H](C(=O)O)C(C)C)C(C)C)C(C)C,HeLa and HEK-293T cells,"phosphatase bead binding, competitive inhibitor, PIB pulldown iBAQ LC-MS/MS, item: PPP4C",,concentration not given,reference: untreated control,log2 fold change,0.51
COc1cc(N)c(Cl)cc1C(=O)NC1CN2CCC1CC2 (stereo not drawn),"G-protein coupled receptor 12 (GPR12, Homo sapiens, UniProt P47775)","β-arrestin recruitment, TANGO luminescence, item: GPR12",,concentration not given,reference: basal luminescence,log2 fold change,0.035
CC[C@H](C)[C@H](NC(=O)[C@H](Cc1ccccc1)NC(=O)[C@H](CCC(=O)O)NC(=O)[C@H](CCCNC(=N)N)NC(=O)[C@H](C)NC(=O)[C@H](C)NC(=O)[C@H](CCC(N)=O)NC(=O)[C@H](CCC(=O)O)NC(=O)[C@H](CCC(=O)O)NC(=O)[C@H](CC(C)C)NC(=O)[C@H](Cc1ccc(O)cc1)NC(=O)[C@H](CO)NC(=O)[C@H](CO)NC(=O)[C@@H](NC(=O)[C@H](CC(=O)O)NC(=O)[C@H](CO)NC(=O)[C@@H](NC(=O)[C@H](Cc1ccccc1)NC(=O)[C@@H](NC(=O)CNC(=O)[C@H](CCC(=O)O)NC(=O)[C@H](C)NC(=O)CCc1c[nH]cn1)[C@@H](C)O)[C@@H](C)O)C(C)C)C(=O)N[C@@H](C)C(=O)N[C@@H](Cc1c[nH]c2ccccc12)C(=O)N[C@@H](CC(C)C)C(=O)N[C@H](C(=O)N[C@@H](CCCNC(=N)N)C(=O)NCC(=O)N[C@@H](CCCNC(=N)N)C(=O)N[C@@H](CCCCNC(=O)COCCOCCNC(=O)COCCOCCNC(=O)CC[C@H](NC(=O)CCCCCCCCCCCCCCCCC(=O)O)C(=O)O)C(=O)NCC(=O)NCC(=O)N[C@@H](CO)C(=O)N[C@@H](CCCCNc1c(NCCCCCN(O)C(=O)CCC(=O)NCCCCCN(O)C(=O)CCC(=O)NCCCCCN(O)C(C)=O)c(=O)c1=O)C(=O)O)C(C)C [zirconium-89 labelled],,,"rat, intestine","sc, 3 nmol/kg, 24 h, ex vivo",,tissue uptake,0.16 %ID/g
C[C@H]1CN(c2n[nH]c3nc(N[C@H]4CC[C@H](NS(=O)(=O)CCC(F)(F)F)CC4)ncc23)CCO1,"Dynactin subunit 2 (DCTN2, Homo sapiens, UniProt Q13561)","Kinobeads competition, item: DCTN2",,"0.8 µM, unit not given",reference: vehicle,remaining binding,1.27
CC[C@H](C)[C@@H]1NC(=O)[C@@H]2CCCN2C(=O)[C@H](CC(C)C)NC(=O)[C@H](CC(C)C)NC(=O)CNC(=O)[C@@H](NC(=O)[C@@H](NC(=O)[C@H](CC(=O)O)NC(=O)CNC(=O)[C@@H](NC(=O)[C@H](C)NC(=O)CNC(=O)[C@H](CCCCN)NC(=O)[C@H](CC(C)C)NC(=O)[C@H](CC(C)C)NC(=O)[C@H](CCCCN)NC(=O)CNC(=O)[C@@H](NC(=O)[C@@H](N)CC(C)C)C(C)C)C(C)C)C(C)C)CSSC[C@@H](C(=O)O)NC1=O,,"RNA-seq, item: Rbm38","mouse, traumatic brain injury model, frontal cortex and hippocampus",dose not given,reference: TBI alone,log2 fold change,-1.53
O=C(c1ccc(Cl)cc1)N1CCN2C(=O)N(OC(=O)N3CCOc4ccccc43)C(=O)C2C1 (stereo not drawn),"Platelet-activating factor acetylhydrolase IB subunit alpha1 (Homo sapiens, UniProt Q15102)",MS-based ABPP,SW-620 conditioned medium,"10 µM, 1 h, 37 °C","reference: compound over DMSO, lower = more inhibition",peptide ratio,0.9 and 0.79 and 0.74 and 0.81 and 0.93 and 0.95 and 0.77
CO[C@H]1C[C@@H]2CC[C@@H](C)[C@@](O)(O2)C(=O)C(=O)N2CCCC[C@H]2C(=O)O[C@H]([C@H](C)C[C@@H]2CC[C@@H](OC(=O)NCCOCCOCCOCCOCCOCCOCCOCCOCCC(=O)N3CCc4cc(Cn5nc(-c6ccc7oc(N)nc7c6)c6c(N)ncnc65)ccc4C3)[C@H](OC)C2)C[C@@H](O)[C@H](C)/C=C(\C)[C@@H](O)[C@@H](OC)C(=O)[C@H](C)C[C@H](C)/C=C/C=C/C=C/1C,,dose-escalation trial,patients with advanced solid tumours,"intravenous, 1.6 mg/3 mg weekly, any grade",,gastric haemorrhage leading to dose reduction,0%
Oc1ccc2c3c1O[C@H]1[C@@H](O)CC[C@@]4(O)[C@@H](C2)N(CC2CCC2)CC[C@]314,"Probable G-protein coupled receptor 156 (GPR156, Homo sapiens, UniProt Q8NFN8)","β-arrestin recruitment, TANGO luminescence, item: GPR156",,concentration not given,reference: basal luminescence,log2 fold change,-0.031
COc1cc(Nc2ncc(F)c(Nc3ccc4c(n3)NC(=O)C(C)(C)O4)n2)cc(OC)c1OC,"PTGDR2 (Homo sapiens, UniProt Q9Y5Y4)",,,,,IC50,> 10 µM
[2H]c1c([2H])c([C@]2([2H])CCCN2C(=O)C(C)(C)Oc2ccc3cn[nH]c3c2)c([2H])c([2H])c1C([2H])([2H])[2H],"MAP3K1 (Homo sapiens, UniProt Q13233)",KINOMEscan,,1 µM,reference: DMSO control,remaining binding,72%
CN1CCN(c2cc(-c3ccncc3)c(-c3ccc4ccccc4c3)nn2)CC1,"TACR1 (Homo sapiens, UniProt P25103)","agonist, FLIPR",,12.5 µM,,activation,-4%

# A few entries again:
Compound,target or system,test,system,setting,how to read,quantity,result
CC[C@H](C)[C@@H]1NC(=O)[C@@H]2CCCN2C(=O)[C@H](CC(C)C)NC(=O)[C@H](CC(C)C)NC(=O)CNC(=O)[C@@H](NC(=O)[C@@H](NC(=O)[C@H](CC(=O)O)NC(=O)CNC(=O)[C@@H](NC(=O)[C@H](C)NC(=O)CNC(=O)[C@H](CCCCN)NC(=O)[C@H](CC(C)C)NC(=O)[C@H](CC(C)C)NC(=O)[C@H](CCCCN)NC(=O)CNC(=O)[C@@H](NC(=O)[C@@H](N)CC(C)C)C(C)C)C(C)C)C(C)C)CSSC[C@@H](C(=O)O)NC1=O,,"RNA-seq, item: Rbm38","mouse, traumatic brain injury model, frontal cortex and hippocampus",dose not given,reference: TBI alone,log2 fold change,-1.53
O=C(c1ccc(Cl)cc1)N1CCN2C(=O)N(OC(=O)N3CCOc4ccccc43)C(=O)C2C1 (stereo not drawn),"Platelet-activating factor acetylhydrolase IB subunit alpha1 (Homo sapiens, UniProt Q15102)",MS-based ABPP,SW-620 conditioned medium,"10 µM, 1 h, 37 °C","reference: compound over DMSO, lower = more inhibition",peptide ratio,0.9 and 0.79 and 0.74 and 0.81 and 0.93 and 0.95 and 0.77
